# Published values of several laboratories.
# Parts stem from different laboratories: compare values within a part only. Several values in a cell are separate wells, animals, samples, runs or records.
# Chain of UniProt Q01959 (whole entry, looked up): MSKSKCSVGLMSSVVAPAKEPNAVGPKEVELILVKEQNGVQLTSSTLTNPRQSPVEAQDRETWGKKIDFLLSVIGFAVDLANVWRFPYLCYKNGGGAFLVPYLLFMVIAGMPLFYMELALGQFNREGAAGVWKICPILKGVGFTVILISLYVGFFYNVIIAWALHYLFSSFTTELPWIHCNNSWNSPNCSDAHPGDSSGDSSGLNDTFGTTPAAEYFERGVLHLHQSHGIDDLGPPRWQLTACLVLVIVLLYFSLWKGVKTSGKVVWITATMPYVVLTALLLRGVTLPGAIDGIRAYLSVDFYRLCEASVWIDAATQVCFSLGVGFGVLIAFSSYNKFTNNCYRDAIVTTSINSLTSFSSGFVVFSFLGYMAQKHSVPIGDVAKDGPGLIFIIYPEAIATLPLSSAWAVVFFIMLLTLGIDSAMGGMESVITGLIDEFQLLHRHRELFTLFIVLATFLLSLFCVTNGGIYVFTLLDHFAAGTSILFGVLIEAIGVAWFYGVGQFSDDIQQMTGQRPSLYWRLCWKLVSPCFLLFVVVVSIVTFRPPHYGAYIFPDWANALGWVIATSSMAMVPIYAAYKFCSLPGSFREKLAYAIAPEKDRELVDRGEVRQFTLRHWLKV
# Chain of UniProt P23975 (whole entry, looked up): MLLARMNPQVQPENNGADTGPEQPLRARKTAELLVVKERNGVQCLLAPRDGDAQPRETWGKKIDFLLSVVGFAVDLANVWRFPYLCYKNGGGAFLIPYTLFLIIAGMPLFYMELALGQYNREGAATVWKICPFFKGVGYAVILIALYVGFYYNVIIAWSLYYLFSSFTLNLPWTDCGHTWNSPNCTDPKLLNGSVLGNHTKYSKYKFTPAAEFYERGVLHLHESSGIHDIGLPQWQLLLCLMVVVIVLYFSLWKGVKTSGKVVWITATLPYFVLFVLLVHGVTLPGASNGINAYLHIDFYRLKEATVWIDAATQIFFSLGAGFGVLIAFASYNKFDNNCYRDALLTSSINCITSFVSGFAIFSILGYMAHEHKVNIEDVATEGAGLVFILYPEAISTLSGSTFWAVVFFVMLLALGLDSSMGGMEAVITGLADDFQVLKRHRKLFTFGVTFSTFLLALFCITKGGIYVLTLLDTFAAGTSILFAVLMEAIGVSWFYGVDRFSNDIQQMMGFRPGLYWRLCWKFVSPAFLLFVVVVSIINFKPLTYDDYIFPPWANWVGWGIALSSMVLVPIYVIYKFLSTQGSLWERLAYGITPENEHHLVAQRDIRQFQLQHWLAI
# Chain of UniProt P11229 (whole entry, looked up): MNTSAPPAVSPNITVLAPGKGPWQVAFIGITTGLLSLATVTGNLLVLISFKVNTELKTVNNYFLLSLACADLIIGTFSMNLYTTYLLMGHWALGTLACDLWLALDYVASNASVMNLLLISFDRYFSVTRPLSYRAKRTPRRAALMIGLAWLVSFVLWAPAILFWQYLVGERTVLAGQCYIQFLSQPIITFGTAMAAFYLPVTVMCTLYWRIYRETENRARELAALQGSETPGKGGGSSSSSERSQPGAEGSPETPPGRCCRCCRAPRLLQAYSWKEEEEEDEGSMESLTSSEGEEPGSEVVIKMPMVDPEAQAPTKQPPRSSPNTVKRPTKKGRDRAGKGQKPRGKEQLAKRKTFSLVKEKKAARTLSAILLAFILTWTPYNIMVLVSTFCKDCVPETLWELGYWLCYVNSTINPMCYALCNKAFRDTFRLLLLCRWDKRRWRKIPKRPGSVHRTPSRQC
# Chain of UniProt P20309 (whole entry, looked up): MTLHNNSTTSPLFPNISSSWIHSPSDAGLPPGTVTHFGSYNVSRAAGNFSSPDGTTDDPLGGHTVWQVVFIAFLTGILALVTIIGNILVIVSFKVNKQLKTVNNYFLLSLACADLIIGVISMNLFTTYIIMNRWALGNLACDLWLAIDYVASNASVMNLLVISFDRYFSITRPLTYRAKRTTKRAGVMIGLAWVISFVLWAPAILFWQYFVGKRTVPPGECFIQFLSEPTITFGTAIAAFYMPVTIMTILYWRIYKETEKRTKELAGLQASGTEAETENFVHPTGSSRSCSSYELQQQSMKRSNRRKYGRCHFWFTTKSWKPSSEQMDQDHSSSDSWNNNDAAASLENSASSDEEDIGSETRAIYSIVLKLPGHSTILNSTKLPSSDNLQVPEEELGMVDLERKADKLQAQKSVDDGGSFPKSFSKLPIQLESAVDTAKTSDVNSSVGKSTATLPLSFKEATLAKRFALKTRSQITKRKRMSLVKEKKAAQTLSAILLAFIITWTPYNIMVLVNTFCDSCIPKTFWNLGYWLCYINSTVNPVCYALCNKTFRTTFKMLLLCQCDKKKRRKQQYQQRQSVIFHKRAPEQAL

# Sample 1 — technique: CCK-8
# SMILES: CC(C)S(=O)(=O)c1cc2c(Nc3ccc4sc(C5CCCC5)nc4c3)ccnc2cc1OCCO
cell line,setting,survival
L929 RIPK3-/- reexpressing RIPK3 K51A/R69H,1.563 µM,86.3% and 101% and 89.9% and 96.9% and 98%
L929 RIPK3-/- reexpressing RIPK3 K51A,"3.125 µM, together with: zVAD",92.3% and 85.1% and 85% and 93.2% and 92.6%
L929 RIPK3-/- reexpressing RIPK3 K51A,"1.563 µM, together with: zVAD",92.6% and 87.4% and 93% and 88.8% and 90.2%

# Sample 2 — tested at: 10 µM
# SMILES: Cc1cc2c(-c3ccco3)cnc(N[C@@H]3CCN(C)C[C@H]3C(=O)NC3CCCCC3)c2[nH]c1=O
target,assay,inhibition [%]
"SLC6A2 (Homo sapiens, UniProt P23975)",cell-free assay,30.5
"CHRM3 (Homo sapiens, UniProt P20309)",ligand displacement,-11
"SLC6A3 (Homo sapiens, UniProt Q01959)",cell-free assay,28.5
"CHRM1 (Homo sapiens, UniProt P11229)",ligand displacement,-9.42

# Single results of other studies
Compound,target or system,assay,test system,setting,how to read,endpoint,result
Clc1ccc(C(OCCN2CCCCC2)c2ccccc2)cc1 (centres unmarked),mouse MPNST tumor cells,"high-content immunofluorescence imaging, refers to: nuclear SOX9",,"10 µM, 12 h, mean of 2 replicates","baseline: DMSO control, higher = more nuclear SOX9",nuclear SOX9 intensity,195 % of DMSO
Cc1n[nH]c2c1C(c1c(Cl)nc3sccn13)SCC(O)=N2 (centres unmarked),,,"mouse, microsomes or S9","2 µM, 0.5 h",,remaining compound,32.5%
CCc1cccc(CC)c1NC1=NCCN1,mouse MPNST tumor cells,"high-content immunofluorescence imaging, refers to: nuclear SOX9",,"10 µM, 12 h, mean of 2 replicates","baseline: DMSO control, higher = more nuclear SOX9",nuclear SOX9 intensity,97.8 % of DMSO
CCN(CC)C(C)C(=O)c1ccccc1 (centres unmarked),mouse MPNST tumor cells,"high-content immunofluorescence imaging, refers to: nuclear SOX9",,"10 µM, 12 h, mean of 2 replicates","baseline: DMSO control, higher = more nuclear SOX9",nuclear SOX9 intensity,97.7 % of DMSO

# Repeated from above (sample 1):
cell line,setting,survival
L929 RIPK3-/- reexpressing RIPK3 K51A,"3.125 µM, together with: zVAD",92.3% and 85.1% and 85% and 93.2% and 92.6%
